Published values from different studies.
A part holds a random share of what one study measured. Substitutions count along the parent as printed.

Series 1
Target: ABI1, truncated, D143A, DHFR fusion (Arabidopsis thaliana)
Technique: DHFR PCA, deep sequencing
Medium: yeast
Notes: methotrexate growth selection, single substitutions
Added: (+)-ABA 2500 µM
Baseline: wild-type fitted maximum
Direction: higher = stronger binding
Parent: PYL1, truncated, DHFR fusion (Arabidopsis thaliana); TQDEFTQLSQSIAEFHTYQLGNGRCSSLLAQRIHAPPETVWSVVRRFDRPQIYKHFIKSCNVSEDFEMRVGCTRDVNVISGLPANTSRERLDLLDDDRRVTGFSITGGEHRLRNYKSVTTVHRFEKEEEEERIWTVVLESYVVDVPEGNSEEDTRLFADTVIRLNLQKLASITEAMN; partner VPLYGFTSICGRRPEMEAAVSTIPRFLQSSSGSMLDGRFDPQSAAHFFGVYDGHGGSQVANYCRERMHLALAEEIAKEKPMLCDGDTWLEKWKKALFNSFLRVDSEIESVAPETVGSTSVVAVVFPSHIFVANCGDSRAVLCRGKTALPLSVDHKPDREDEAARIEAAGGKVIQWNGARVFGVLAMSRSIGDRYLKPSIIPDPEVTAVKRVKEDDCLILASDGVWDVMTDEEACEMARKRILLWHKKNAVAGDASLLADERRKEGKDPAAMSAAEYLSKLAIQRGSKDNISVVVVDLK
`D65C` — result for “relative binding score”: 93.1%.
`I79W` — result for “relative binding score”: 97.4%.
`D97C`: “relative binding score” 99.7%.
For `Q167S`, “relative binding score” read 98.3%.
`Q2I` — result for “relative binding score”: 106%.
`Y53A` — result for “relative binding score”: 78.1%.
Under “relative binding score”, `S140Y` is recorded as 38.8%.
Under “relative binding score”, `S27Q` is recorded as 99.7%.
Under “relative binding score”, `S140R` is recorded as 48.9%.
For `R32P`, “relative binding score” read 83.3%.

Series 2
Target: Sal-like protein 4, full length isoform B (SALL4, Homo sapiens, UniProt Q9UJQ4-2, residues 1-616)
Technique: universal PBM
Form: double-stranded DNA, one strand shown
Medium: in vitro
Concentration: not given
Notes: 8-mer, flanks averaged, mean of replicates
Direction: higher = stronger binding
Construct (chain): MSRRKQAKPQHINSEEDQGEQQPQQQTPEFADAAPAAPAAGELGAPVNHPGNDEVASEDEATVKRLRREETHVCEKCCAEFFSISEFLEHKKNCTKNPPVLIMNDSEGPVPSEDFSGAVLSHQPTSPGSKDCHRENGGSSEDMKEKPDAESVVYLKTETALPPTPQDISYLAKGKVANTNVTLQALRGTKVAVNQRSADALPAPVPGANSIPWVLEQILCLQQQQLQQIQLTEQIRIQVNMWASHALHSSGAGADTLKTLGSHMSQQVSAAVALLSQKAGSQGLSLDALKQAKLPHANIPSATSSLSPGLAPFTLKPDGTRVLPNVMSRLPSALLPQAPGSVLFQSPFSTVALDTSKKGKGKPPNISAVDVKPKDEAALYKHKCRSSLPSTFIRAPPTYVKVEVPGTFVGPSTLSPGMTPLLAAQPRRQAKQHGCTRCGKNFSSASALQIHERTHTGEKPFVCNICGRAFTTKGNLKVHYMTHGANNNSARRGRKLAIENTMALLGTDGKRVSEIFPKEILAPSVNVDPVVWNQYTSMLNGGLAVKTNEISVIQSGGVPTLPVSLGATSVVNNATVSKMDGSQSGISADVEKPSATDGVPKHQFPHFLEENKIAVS
With `GTCACCCA` the E-score was -0.184.
The E-score of `CTACTGCA` is reported as 0.0232.
`AAGAATCT` gave an E-score of -0.0175.
The E-score of `TAGTGATA` is reported as 0.207.
`GCGGATTA` has an E-score of 0.0679.
The E-score of `AGATTAAC` is reported as 0.14.
With `CATACATC` the E-score was 0.235.
`ACTCTGGA` has an E-score of 0.089.
For `AGACGTGA`, the E-score was 0.0635.
The E-score of `GTGAGATA` is reported as 0.143.
`ATCATCCA` has an E-score of 0.108.
`CCAACTAA` has an E-score of 0.0841.

Series 3
Target: CCNF, cyclin fold, Cln2 fusion (human)
Technique: yeast growth competition, sequencing
Medium: yeast
Notes: strong parent motif
Baseline: not given
Direction: higher = stronger binding
Parent: SAMHD1 docking peptide (human); ASKSRVQLFKDDP; partner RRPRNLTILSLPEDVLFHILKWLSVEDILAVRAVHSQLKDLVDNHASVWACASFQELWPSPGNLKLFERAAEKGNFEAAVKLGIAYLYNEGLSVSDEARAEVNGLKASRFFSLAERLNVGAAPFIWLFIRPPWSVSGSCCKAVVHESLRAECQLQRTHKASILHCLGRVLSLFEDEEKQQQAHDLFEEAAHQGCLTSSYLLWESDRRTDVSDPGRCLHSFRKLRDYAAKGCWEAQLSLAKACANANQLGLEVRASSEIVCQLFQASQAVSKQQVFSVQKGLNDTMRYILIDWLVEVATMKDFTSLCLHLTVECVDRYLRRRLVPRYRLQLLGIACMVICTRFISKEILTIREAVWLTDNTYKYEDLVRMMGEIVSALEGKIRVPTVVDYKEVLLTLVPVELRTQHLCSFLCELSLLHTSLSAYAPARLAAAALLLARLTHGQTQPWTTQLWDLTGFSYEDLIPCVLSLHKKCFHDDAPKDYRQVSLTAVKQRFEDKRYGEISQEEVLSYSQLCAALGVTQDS
`ASKSRVQLAKDDP [F9A]` — result for “normalised enrichment score”: -0.161.
`ASKSRVQLKKDDP [F9K]`: “normalised enrichment score” -0.338.
For `ASKSRVQLLKDDP [F9L]`, “normalised enrichment score” read 0.196.
Under “normalised enrichment score”, `ASKSRVQEFKDDP [L8E]` is recorded as -0.0324.
`ASKSRVQLFKSDP [D11S]`: “normalised enrichment score” 1.47.
Under “normalised enrichment score”, `ASQSRVQLFKDDP [K3Q]` is recorded as 1.11.
`ASKSGVQLFKDDP [R5G]` — result for “normalised enrichment score”: 0.533.
Under “normalised enrichment score”, `ASPSRVQLFKDDP [K3P]` is recorded as 0.523.
For `ASKHRVQLFKDDP [S4H]`, “normalised enrichment score” read 1.29.
`ASKSRVQLFYDDP [K10Y]`: “normalised enrichment score” -0.00419.
`ASKSPVQLFKDDP [R5P]`: “normalised enrichment score” -0.172.

Further values, each from its own experiment
With `PhoQ, residues 284 288 289 292 302 303 ALASRC` the fold induction was 1.99 (PhoP, residues 12 14 15 18 19 NQGLL (Escherichia coli, UniProt P23836); Sort-seq, refers to: YFP reporter; E. coli; PhoQ-PhoP variant library, added: 10 µM Mg2+; baseline: high Mg2+ state, higher = stronger signaling).

Excerpt of the above (series 3):
For `ASKSRVQLLKDDP [F9L]`, “normalised enrichment score” read 0.196.
Under “normalised enrichment score”, `ASKSRVQEFKDDP [L8E]` is recorded as -0.0324.
`ASKSRVQLFKSDP [D11S]`: “normalised enrichment score” 1.47.
Under “normalised enrichment score”, `ASQSRVQLFKDDP [K3Q]` is recorded as 1.11.
`ASKSGVQLFKDDP [R5G]` — result for “normalised enrichment score”: 0.533.
